{"data": "Experimental data from different studies", "organism": "Plasmodium falciparum", "note": "Numbers after ± are the reported error."}
{"Structure (SMILES)": "N#Cc1ccc(-c2csc(CNC(=O)[C@H]3CCCN(C(=O)COCCF)C3)n2)cc1", "test": "SYBR Green growth", "system": "asexual blood-stage parasites, 3D7", "setting": "72 h", "EC50 [nM]": "4.1 ± 0.68"}
{"Structure (SMILES)": "CCCCN(CCCC)CC(O)c1cc(Cl)cc2c1-c1ccc(Cl)cc1/C2=C/c1ccc(Cl)cc1 (stereo not shown)", "test": "gametocyte viability, luciferase", "system": "stage II-III gametocytes", "setting": "48 h", "EC50 [nM]": 9}
{"Structure (SMILES)": "COCC(=O)N1CCC[C@H](C(=O)NCc2nc(-c3ccc(C)cc3)cs2)C1", "test": "SYBR Green", "system": "3D7", "setting": "72 h", "EC50 [nM]": "24 ± 2.1"}
{"Structure (SMILES)": "COc1ccc(Nc2ccnc3ccc(-c4ccc(S(=O)(=O)N5CCOCC5)cc4)cc23)cc1Cl", "test": "parasite growth, SYBR Green", "system": "W2", "EC50 [nM]": 540}
{"Structure (SMILES)": "Cn1cc(-c2cnc3[nH]cc(-c4cn(Cc5cccc(F)c5F)nn4)c3c2)cn1", "test": "parasite growth, LDH colorimetric", "system": "3D7 Hyp1-Nluc", "setting": "72 h", "EC50 [nM]": 468}
{"Structure (SMILES)": "COc1ccc(Nc2ccnc3ccc(-c4ccc(S(=O)(=O)N5CCOCC5)cc4)cc23)cc1C", "test": "parasite growth, SYBR Green", "system": "D6", "EC50 [nM]": 260}
{"Structure (SMILES)": "COCC(=O)N1CCC[C@H](C(=O)NCc2nc(-c3ccc(C)nc3)cs2)C1", "test": "SYBR Green growth", "system": "asexual blood-stage parasites, 3D7", "setting": "72 h", "EC50 [nM]": "26 ± 6.4"}
{"Structure (SMILES)": "Cc1c(-c2c[nH]c3cc(C(F)(F)F)ccc23)c[nH]c1C(=O)NC(C)c1ccn(C)n1 (stereo not shown)", "test": "parasite growth", "system": "3D7", "EC50 [nM]": "> 5000"}
{"Structure (SMILES)": "CCN1CCN(Cc2ccc(Nc3nc4nc(Oc5ccnc(NC(C)=O)c5)ncc4[nH]3)cc2C(F)(F)F)CC1", "test": "parasite growth, SYBR Green I", "system": "Dd2", "setting": "72 h", "EC50 [nM]": "800 ± 100"}
{"Structure (SMILES)": "Cc1ccc(-c2csc(CNC(=O)[C@H]3CCCN(C(=O)COCCF)[C@H]3C)n2)cn1", "test": "SYBR Green growth", "system": "asexual blood-stage parasites, 3D7", "setting": "72 h", "EC50 [nM]": "4.8 ± 1.8"}
{"Structure (SMILES)": "Cc1c(-c2n[nH]c3nc(C(F)(F)F)ccc23)c[nH]c1C(=O)N1CC(F)(F)C1", "test": "parasite growth", "system": "3D7", "EC50 [nM]": 200}
{"Structure (SMILES)": "O=C(Nc1ccc(CNc2ncnc3ccccc23)cc1)c1ccc(Cl)c(F)c1", "test": "parasite growth, LDH colorimetric", "system": "3D7 Hyp1-Nluc", "setting": "72 h", "EC50 [nM]": 1550}
{"Structure (SMILES)": "CCOC(=O)c1cn(CC)c2cc(N3CCC(Cc4ccccc4)CC3)c(F)cc2c1=O", "test": "parasite growth, [3H]hypoxanthine incorporation", "system": "RF12", "setting": "72 h", "EC50 [nM]": 6}
{"Structure (SMILES)": "O=S(=O)(c1ccc(-c2ccc3nccc(Nc4ccc(OCc5cccc(F)c5)cc4)c3c2)cc1)N1CCOCC1", "test": "parasite growth, SYBR Green", "system": "D6", "EC50 [nM]": 640}
{"Structure (SMILES)": "CC[C@](O)(c1cnc(C(F)(F)F)c(Cl)c1)c1c2ccn(C3CC3)c(=O)c2nn1C", "test": "parasite growth", "system": "3D7", "EC50 [nM]": 398}
{"Structure (SMILES)": "COCC(=O)N1CCC[C@H](C(=O)NCc2nc(-c3ccc(C4CC4)cc3)cs2)C1", "test": "SYBR Green growth", "system": "asexual blood-stage parasites, 3D7", "setting": "72 h", "EC50 [nM]": "24 ± 7.4"}
{"Structure (SMILES)": "O=S(=O)(c1ccc(-c2ccc3nccc(Nc4cncs4)c3c2)cc1)N1CCOCC1", "test": "parasite growth, SYBR Green", "system": "TM91C235", "EC50 [nM]": "> 20000"}
{"Structure (SMILES)": "C[C@H]1[C@@H](O)O[C@@H]2O[C@@]3(C)CC[C@H]4[C@H](C)CC[C@@H]1[C@@]24OO3", "system": "NF54", "setting": "72 h, stage V gametocytes", "EC50 [nM]": 39}
{"Structure (SMILES)": "O=S(=O)(c1ccc(-c2ccc3nccc(Nc4ccc5[nH]nnc5c4)c3c2)cc1)N1CCOCC1", "test": "parasite growth, SYBR Green", "system": "W2", "EC50 [nM]": 630}
{"Structure (SMILES)": "Cn1nc2c(=O)n(C3CC3)ncc2c1[C@@](O)(c1cnc(C(F)(F)F)c(Cl)c1)C(F)(F)F", "test": "parasite growth", "system": "3D7", "EC50 [nM]": 631}
{"Structure (SMILES)": "O=S(=O)(c1ccc(-c2ccc3nccc(Nc4ncc(Cl)cn4)c3c2)cc1)N1CCOCC1", "test": "parasite growth, SYBR Green", "system": "TM91C235", "EC50 [nM]": 1500}
{"Structure (SMILES)": "CCOCC(=O)N1CCC[C@H](C(=O)NCc2nc(-c3ccc(C#N)cc3)cs2)C1", "system": "3D7", "setting": "72 h", "EC50 [nM]": "7 ± 3.8"}
{"Structure (SMILES)": "O=C(NCc1nc(-c2ccc(C(F)(F)F)cc2)cs1)[C@H]1CCCN(C(=O)COCCN2CCCC2)C1", "test": "SYBR Green growth", "system": "asexual blood-stage parasites, 3D7", "setting": "72 h", "EC50 [nM]": "31 ± 15"}
{"Structure (SMILES)": "Cc1cnnc(Nc2ccnc3ccc(-c4ccc(S(=O)(=O)N5CCOCC5)cc4)cc23)c1", "test": "parasite growth, SYBR Green", "system": "W2", "EC50 [nM]": 2800}
{"Structure (SMILES)": "CCCC(=O)N1CCC[C@H](C(=O)NCc2nc(-c3ccccc3)cs2)C1", "test": "SYBR Green growth", "system": "asexual blood-stage parasites, 3D7", "setting": "72 h", "EC50 [nM]": "4800 ± 1200"}
{"Structure (SMILES)": "CCCn1ccc2c(Cc3ccc(C(F)(F)F)nc3)n(C)nc2c1=O", "test": "parasite growth", "system": "3D7", "EC50 [nM]": 12600}
{"Structure (SMILES)": "CCN1CCN(Cc2ccc(Nc3nc4cc(Oc5ccnc(NC(C)=O)c5)ccc4n3C)cc2C(F)(F)F)CC1", "test": "parasite growth, SYBR Green I", "system": "Dd2", "setting": "72 h", "EC50 [nM]": "700 ± 100"}
{"Structure (SMILES)": "CC[C@@](O)(c1cnc(C(F)(F)F)c(Cl)c1)c1c2ncn(C3CC3)c(=O)c2nn1C", "test": "parasite growth", "system": "3D7", "EC50 [nM]": 0.94}
{"Structure (SMILES)": "COc1ccc(NC(=O)N2CCCCN3[C@H](COCCC(=O)O)[C@H](c4ccc(C#Cc5ccccc5)cc4)[C@@H]3C2)cc1", "test": "blood-stage growth inhibition", "system": "Dd2", "EC50 [nM]": 23}
{"Structure (SMILES)": "CCn1cc(-c2nc(C)no2)c(=O)c2cc(F)c(N3CCC(C)CC3)cc21", "test": "parasite growth, [3H]hypoxanthine incorporation", "system": "RF12", "setting": "72 h", "EC50 [nM]": 5}
{"Structure (SMILES)": "Cc1cc(Nc2ccc(S(F)(F)(F)(F)F)cc2)n2nc(C(C)(F)F)nc2n1", "setting": "72 h", "EC50 [nM]": 2.3}
{"Structure (SMILES)": "CCn1cc(-c2nc(C)no2)c(=O)c2cc(F)c(N3CCC(Cc4ccccc4)CC3)cc21", "test": "parasite growth, [3H]hypoxanthine incorporation", "system": "NF54", "setting": "72 h", "EC50 [nM]": 3}
{"Structure (SMILES)": "Cc1cc(C(C)NC(=O)c2[nH]cc(Cc3cccc4ccncc34)c2C)no1 (stereo not shown)", "test": "parasite growth", "system": "3D7", "EC50 [nM]": "2 to 4"}
{"Structure (SMILES)": "COCC(=O)N1CCC[C@H](C(=O)NCc2nc(C3CCOCC3)cs2)C1", "test": "SYBR Green growth", "system": "asexual blood-stage parasites, 3D7", "setting": "72 h", "EC50 [nM]": "> 5000"}
{"Structure (SMILES)": "Cc1c(Cc2ccc(C(F)(F)F)nc2)c[nH]c1C(=O)N[C@@H](C)C(N)=O", "test": "parasite growth", "system": "3D7", "EC50 [nM]": "> 10000"}
{"Structure (SMILES)": "CCn1cc(Cl)c2c(Cc3ccc(N4CCN(C)CC4)nc3)n(C)nc2c1=O", "test": "parasite growth", "system": "3D7", "EC50 [nM]": 2510}
{"Structure (SMILES)": "Cc1c(-c2n[nH]c3nc(C(F)(F)F)ccc23)c[nH]c1C(=O)NCC(F)(F)F", "test": "parasite growth", "system": "3D7", "EC50 [nM]": 350}
{"Structure (SMILES)": "CCN(c1ccc(C)cc1)c1ccc(NC(=O)CN(C)c2ccccc2N2CCCC2=O)cn1", "test": "schizont egress, nanoluciferase release", "system": "3D7 NanoLuc", "setting": "4 h", "EC50 [nM]": "> 10000"}
{"Structure (SMILES)": "Cn1nc2c(=O)n(C3CC3)ncc2c1[C@](O)(c1ccc(C(F)(F)F)c(Cl)c1)C1CC1", "test": "parasite growth", "system": "3D7", "EC50 [nM]": 1.9}
{"Structure (SMILES)": "CCN1CCN(Cc2ccc(Nc3nc4ccc(Oc5ccnc(N)c5)cc4n3C)cc2C(F)(F)F)CC1", "test": "parasite growth, SYBR Green I", "system": "Dd2", "setting": "72 h", "EC50 [nM]": "300 ± 20"}
{"Structure (SMILES)": "CCn1cc(C2CC2)c2c([C@H](O)c3cnc(C(F)(F)F)c(Cl)c3)n(C)nc2c1=O", "test": "parasite growth", "system": "3D7", "EC50 [nM]": 4.6}
{"Structure (SMILES)": "CCN1CCN(Cc2ccc(Nc3nc4ccc(Oc5ccnc(NC(=O)CCN(C)C)c5)cc4n3C)cc2C(F)(F)F)CC1", "test": "parasite growth, SYBR Green I", "system": "Dd2", "setting": "72 h", "EC50 [nM]": "200 ± 100"}
{"Structure (SMILES)": "COc1ccc(-c2c(C)nn3c(N)c(C#N)cnc23)cc1OC", "test": "parasite growth, [3H]-hypoxanthine incorporation", "system": "Dd2", "setting": "72 h", "EC50 [nM]": 295}
{"Structure (SMILES)": "CCOCC(=O)N1CC[C@@H](C)[C@H](C(=O)NCc2nc(-c3ccc(C)nc3)cs2)C1 (racemic)", "test": "SYBR Green growth", "system": "asexual blood-stage parasites, 3D7", "setting": "72 h", "EC50 [nM]": "89 ± 19"}
{"Structure (SMILES)": "Cn1nc2c(=O)n(C3CC3)cnc2c1[C@@](O)(c1cnc(C(F)(F)F)c(Cl)c1)C(F)(F)F", "test": "parasite growth", "system": "3D7", "EC50 [nM]": 501}
{"Structure (SMILES)": "Cc1cc(Nc2ccnc3ccc(-c4ccc(S(=O)(=O)N5CCOCC5)cc4)cc23)sn1", "test": "parasite growth, SYBR Green", "system": "TM91C235", "EC50 [nM]": 470}
{"note": "Some of these lines once more:"}
{"Structure (SMILES)": "CCN1CCN(Cc2ccc(Nc3nc4ccc(Oc5ccnc(NC(=O)CCN(C)C)c5)cc4n3C)cc2C(F)(F)F)CC1", "test": "parasite growth, SYBR Green I", "system": "Dd2", "setting": "72 h", "EC50 [nM]": "200 ± 100"}
{"Structure (SMILES)": "COc1ccc(-c2c(C)nn3c(N)c(C#N)cnc23)cc1OC", "test": "parasite growth, [3H]-hypoxanthine incorporation", "system": "Dd2", "setting": "72 h", "EC50 [nM]": 295}
{"Structure (SMILES)": "CCOCC(=O)N1CC[C@@H](C)[C@H](C(=O)NCc2nc(-c3ccc(C)nc3)cs2)C1 (racemic)", "test": "SYBR Green growth", "system": "asexual blood-stage parasites, 3D7", "setting": "72 h", "EC50 [nM]": "89 ± 19"}
{"Structure (SMILES)": "Cn1nc2c(=O)n(C3CC3)cnc2c1[C@@](O)(c1cnc(C(F)(F)F)c(Cl)c1)C(F)(F)F", "test": "parasite growth", "system": "3D7", "EC50 [nM]": 501}
{"Structure (SMILES)": "Cc1cc(Nc2ccnc3ccc(-c4ccc(S(=O)(=O)N5CCOCC5)cc4)cc23)sn1", "test": "parasite growth, SYBR Green", "system": "TM91C235", "EC50 [nM]": 470}
